Assay results pooled from the literature.
± gives the spread as reported.
Target: Calcium/calmodulin-dependent protein kinase type 1 (CAMK1, Homo sapiens, UniProt Q14012)
Chain of UniProt Q14012 (whole entry, looked up): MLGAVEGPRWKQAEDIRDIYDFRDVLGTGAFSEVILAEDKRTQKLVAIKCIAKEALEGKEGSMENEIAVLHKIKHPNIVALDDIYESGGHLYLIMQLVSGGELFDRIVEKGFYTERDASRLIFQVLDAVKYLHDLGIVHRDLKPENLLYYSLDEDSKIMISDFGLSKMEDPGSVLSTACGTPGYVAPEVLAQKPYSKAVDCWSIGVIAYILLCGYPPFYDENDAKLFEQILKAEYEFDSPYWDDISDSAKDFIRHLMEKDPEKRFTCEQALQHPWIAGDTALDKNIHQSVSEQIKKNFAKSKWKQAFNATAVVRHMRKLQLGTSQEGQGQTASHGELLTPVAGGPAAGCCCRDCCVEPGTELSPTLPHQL

For C=CC(=O)N1CCC(COCC(=O)N2CCN(c3nc(-c4cnc(N)nc4C(F)F)nc(N4CCOC[C@@H]4C)n3)CC2)CC1, the remaining binding was 100% (KINOMEscan; 1 µM).
With COc1cc(F)ccc1-c1ncnc(Nc2cccc(C[S@](C)(=N)=O)c2)n1 the remaining activity was 101% (kinase activity; 10 µM, together with: 10 µM ATP).
For Cc1cc(Nc2cc(N3CCN(C)CC3)nc(Sc3ccc(NC(=O)C4CC4)cc3)n2)[nH]n1, the remaining activity was 104% (kinase activity, KinaseProfiler; 0.03 µM, species human; relative to: control).
With C=CC(=O)N1CCC[C@@H](n2nc(-c3ccc(Oc4ccccc4)cc3)c3c(N)ncnc32)C1 the remaining activity was 78.4 ± 0.9% (kinase activity, inhibitor, HotSpot radiometric; 100 nM, together with: ATP 10 µM).
For O=C1NC(=O)/C(=C/c2ccc(-c3ccc(F)cc3O)o2)S1, the remaining activity was 46% (enzyme activity; 10 µM).
With COc1ccc(F)cc1C(=O)NCc1ccc(-c2nn([C@@H](C)C(F)(F)F)c(N)c2C(N)=O)cc1 the remaining activity was 96.4 ± 3.5% (1000 nM, together with: ATP at Km).
With C=CC(=O)N1CCC[C@@H](n2nc(-c3ccc(Oc4ccccc4)cc3)c3c(N)ncnc32)C1 the remaining activity was 85.9% (0.1 µM).
C=CC(=O)N1CCC([C@@H]2CCNc3c(C(N)=O)c(-c4ccc(Oc5ccccc5)cc4)nn32)CC1 has a remaining activity of 97.4 ± 0.2% (kinase activity, inhibitor, HotSpot radiometric; 100 nM, together with: ATP 10 µM).
CC[C@@H]1[C@H](F)C(=O)N[C@@H]1COc1nccc2cc(C(N)=O)c(OC)cc12 has an inhibition of 9.8% (ATP probe binding, KiNativ profiling, refers to: Lys1 probe site; THP-1 cell lysate; 0.04 mM).

Some of these lines once more:
For O=C1NC(=O)/C(=C/c2ccc(-c3ccc(F)cc3O)o2)S1, the remaining activity was 46% (enzyme activity; 10 µM).
